# Assay results of several laboratories.
# ± gives the spread as reported.
# Target: Pancreatic triacylglycerol lipase (PNLIP, Sus scrofa, UniProt P00591)
# Effect on: enzyme activity
# One construct used (P00591 1-450): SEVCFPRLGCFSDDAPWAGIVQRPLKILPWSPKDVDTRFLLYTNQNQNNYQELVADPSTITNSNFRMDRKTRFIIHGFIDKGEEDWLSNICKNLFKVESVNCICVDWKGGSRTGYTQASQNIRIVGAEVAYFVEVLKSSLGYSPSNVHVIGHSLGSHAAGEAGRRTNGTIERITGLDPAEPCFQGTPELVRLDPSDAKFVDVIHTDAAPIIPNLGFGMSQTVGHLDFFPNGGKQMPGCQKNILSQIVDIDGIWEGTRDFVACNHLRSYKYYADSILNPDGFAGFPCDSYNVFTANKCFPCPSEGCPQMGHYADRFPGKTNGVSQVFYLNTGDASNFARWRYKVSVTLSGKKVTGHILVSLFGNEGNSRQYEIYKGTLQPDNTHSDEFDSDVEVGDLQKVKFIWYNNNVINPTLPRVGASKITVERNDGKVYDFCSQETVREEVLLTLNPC
Compound,mode,technique,pH,IC50
COc1cc(/C=C/C(=O)/C=C/c2ccc(O)c(OC)c2)ccc1O,inhibitor,absorbance,,235 µM
O=C(O[C@H]1Cc2c(O)cc(O)cc2O[C@@H]1c1cc(O)c(O)c(O)c1)c1cc(O)c(O)c(O)c1,inhibitor,,,62.6 µM
C=C1CC[C@@H]2O[C@@]2(C)CC[C@H]2[C@H]1C[C@]2(C)C(=O)/C=C/C(C)(O)CO (stereo partly shown),inhibitor,absorbance,,193 µM
O=C(O[C@@H]1Cc2c(O)cc(O)cc2O[C@@H]1c1ccc(O)c(O)c1)c1cc(O)c(O)c(O)c1,inhibitor,,,16 µM
COc1ccc(/C=C/C(=O)CC(=O)CCc2ccc(OC)c(OC)c2)cc1,inhibitor,absorbance,,82.7 µM
C=C1CCC(O)C(C)=CCC2C1CC2(C)O (stereo not shown),inhibitor,absorbance,,> 500 µM
Oc1cc(O)c2c(c1)O[C@H](c1cc(O)c(O)c(O)c1)[C@H](O)C2,inhibitor,,,51.7 µM
O=C(O[C@@H]1Cc2c(O)cc(O)cc2O[C@@H]1c1cc(O)c(O)c(O)c1)c1cc(O)c(O)c(O)c1,,,,863 ± 107 µM
C=C1CCC(O)C(C)=CCC2C1CC2(C)C(=O)C=CC(C)(C)O (stereo not shown),inhibitor,absorbance,,16.1 µM
Oc1ccc(CCC(O)CC(O)CCc2ccc(O)cc2)cc1 (stereo not shown),inhibitor,absorbance,,111 µM
O=C(O[C@@H]1Cc2c(O)cc(O)cc2O[C@@H]1c1ccc(O)cc1)c1cc(O)c(O)c(O)c1,inhibitor,,,43.9 µM
Cc1cc(O)c(C=O)c2c1C(=O)Oc1c(CO)c(O)c3c(c1O2)C(O)OC3=O (stereo not shown),inhibitor,,,0.182 µM
COc1cc(O)c2c(c1)C1=CC(O)C(O)CC1(C)OC2=O (stereo not shown),inhibitor,fluorescence,pH 8,3.18 µM

# Repeated from above:
Compound,mode,technique,pH,IC50
O=C(O[C@@H]1Cc2c(O)cc(O)cc2O[C@@H]1c1cc(O)c(O)c(O)c1)c1cc(O)c(O)c(O)c1,,,,863 ± 107 µM
C=C1CCC(O)C(C)=CCC2C1CC2(C)C(=O)C=CC(C)(C)O (stereo not shown),inhibitor,absorbance,,16.1 µM
